Assay results from different studies.
Parts stem from different laboratories: compare values within a part only. “And” joins repeats or separate records; there may be more than shown.
UniProt P53355, sequence (whole entry, looked up): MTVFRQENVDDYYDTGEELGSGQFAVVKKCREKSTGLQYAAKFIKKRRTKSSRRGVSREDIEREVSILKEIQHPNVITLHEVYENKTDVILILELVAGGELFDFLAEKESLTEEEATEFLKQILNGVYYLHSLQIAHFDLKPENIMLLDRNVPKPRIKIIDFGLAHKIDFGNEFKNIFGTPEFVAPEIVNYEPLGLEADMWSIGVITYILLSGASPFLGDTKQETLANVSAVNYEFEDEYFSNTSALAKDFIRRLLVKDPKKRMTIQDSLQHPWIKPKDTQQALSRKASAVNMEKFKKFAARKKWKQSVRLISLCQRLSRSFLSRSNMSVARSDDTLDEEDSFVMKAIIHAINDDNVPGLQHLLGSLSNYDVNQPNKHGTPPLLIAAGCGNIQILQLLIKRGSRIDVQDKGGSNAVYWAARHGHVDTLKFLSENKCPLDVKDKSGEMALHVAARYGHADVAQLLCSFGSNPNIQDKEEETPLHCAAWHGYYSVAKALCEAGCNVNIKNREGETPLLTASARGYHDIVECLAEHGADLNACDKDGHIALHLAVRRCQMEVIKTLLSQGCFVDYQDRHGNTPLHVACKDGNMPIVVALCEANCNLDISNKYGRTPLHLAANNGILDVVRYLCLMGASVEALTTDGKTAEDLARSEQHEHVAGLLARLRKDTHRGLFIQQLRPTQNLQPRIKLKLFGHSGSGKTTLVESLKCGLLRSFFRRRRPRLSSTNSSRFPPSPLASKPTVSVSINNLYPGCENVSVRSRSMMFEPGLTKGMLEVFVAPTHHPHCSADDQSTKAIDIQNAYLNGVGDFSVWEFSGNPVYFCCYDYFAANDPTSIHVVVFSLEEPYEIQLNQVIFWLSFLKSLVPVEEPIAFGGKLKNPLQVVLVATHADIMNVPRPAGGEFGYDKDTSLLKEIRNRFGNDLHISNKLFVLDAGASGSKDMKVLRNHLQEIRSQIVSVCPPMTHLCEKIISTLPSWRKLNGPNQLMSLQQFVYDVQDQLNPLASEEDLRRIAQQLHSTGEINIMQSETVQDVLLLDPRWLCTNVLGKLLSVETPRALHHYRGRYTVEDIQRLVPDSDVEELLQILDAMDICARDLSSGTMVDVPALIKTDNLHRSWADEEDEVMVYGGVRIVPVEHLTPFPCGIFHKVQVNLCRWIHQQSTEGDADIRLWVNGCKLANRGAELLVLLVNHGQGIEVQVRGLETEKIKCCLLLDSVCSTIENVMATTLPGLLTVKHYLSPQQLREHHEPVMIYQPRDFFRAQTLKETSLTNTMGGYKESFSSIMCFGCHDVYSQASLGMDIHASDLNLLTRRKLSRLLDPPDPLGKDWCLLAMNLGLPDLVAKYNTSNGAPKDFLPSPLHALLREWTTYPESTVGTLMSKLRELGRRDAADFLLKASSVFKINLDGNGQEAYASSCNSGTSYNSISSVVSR
UniProt Q16659, sequence (whole entry, looked up): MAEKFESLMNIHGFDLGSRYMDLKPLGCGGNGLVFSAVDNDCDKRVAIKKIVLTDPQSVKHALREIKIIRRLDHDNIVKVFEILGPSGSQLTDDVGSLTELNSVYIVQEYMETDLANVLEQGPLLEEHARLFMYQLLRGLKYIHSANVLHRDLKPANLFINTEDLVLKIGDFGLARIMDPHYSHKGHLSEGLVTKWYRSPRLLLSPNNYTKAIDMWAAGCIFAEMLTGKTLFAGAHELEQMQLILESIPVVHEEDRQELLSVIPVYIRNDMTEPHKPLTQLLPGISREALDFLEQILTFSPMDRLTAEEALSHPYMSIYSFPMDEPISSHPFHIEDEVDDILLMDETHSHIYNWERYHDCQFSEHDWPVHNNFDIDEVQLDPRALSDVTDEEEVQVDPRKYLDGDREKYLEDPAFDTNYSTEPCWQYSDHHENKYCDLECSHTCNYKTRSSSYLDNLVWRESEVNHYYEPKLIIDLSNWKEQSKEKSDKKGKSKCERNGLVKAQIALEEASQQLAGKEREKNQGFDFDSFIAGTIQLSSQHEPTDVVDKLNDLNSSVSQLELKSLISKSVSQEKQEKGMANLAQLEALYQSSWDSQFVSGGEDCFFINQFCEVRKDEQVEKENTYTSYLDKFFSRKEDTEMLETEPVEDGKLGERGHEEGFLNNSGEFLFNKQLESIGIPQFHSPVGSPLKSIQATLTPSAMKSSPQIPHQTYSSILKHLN
UniProt O95835, sequence (whole entry, looked up): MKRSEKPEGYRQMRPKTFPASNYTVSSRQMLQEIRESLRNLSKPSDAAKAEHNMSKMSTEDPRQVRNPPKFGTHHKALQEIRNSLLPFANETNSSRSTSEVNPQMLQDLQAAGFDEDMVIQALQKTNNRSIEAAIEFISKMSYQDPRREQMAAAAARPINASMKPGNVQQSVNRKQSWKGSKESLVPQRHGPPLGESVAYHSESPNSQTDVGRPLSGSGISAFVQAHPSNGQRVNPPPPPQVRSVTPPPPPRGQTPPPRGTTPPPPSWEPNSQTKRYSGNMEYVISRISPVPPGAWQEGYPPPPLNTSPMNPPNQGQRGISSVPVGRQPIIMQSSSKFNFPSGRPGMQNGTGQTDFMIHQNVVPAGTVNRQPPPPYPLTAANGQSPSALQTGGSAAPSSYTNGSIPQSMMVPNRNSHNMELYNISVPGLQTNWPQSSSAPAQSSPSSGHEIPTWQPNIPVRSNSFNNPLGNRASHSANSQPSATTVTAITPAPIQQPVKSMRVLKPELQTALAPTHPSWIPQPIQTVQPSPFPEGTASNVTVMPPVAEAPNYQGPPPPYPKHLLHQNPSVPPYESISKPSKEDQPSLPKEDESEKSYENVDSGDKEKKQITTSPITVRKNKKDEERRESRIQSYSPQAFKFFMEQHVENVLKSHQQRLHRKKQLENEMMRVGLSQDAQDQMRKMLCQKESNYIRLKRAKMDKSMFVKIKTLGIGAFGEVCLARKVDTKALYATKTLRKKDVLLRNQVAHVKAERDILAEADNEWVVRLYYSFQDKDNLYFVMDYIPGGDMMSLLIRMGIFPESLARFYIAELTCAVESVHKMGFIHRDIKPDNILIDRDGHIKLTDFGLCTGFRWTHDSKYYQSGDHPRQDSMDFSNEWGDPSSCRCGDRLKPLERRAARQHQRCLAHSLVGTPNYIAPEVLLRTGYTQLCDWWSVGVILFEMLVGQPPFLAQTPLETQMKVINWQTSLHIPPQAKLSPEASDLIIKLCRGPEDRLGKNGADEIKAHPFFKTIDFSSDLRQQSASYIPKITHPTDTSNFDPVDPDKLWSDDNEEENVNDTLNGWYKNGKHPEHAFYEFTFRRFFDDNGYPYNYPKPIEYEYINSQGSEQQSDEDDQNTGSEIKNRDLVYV
UniProt P35916, sequence (whole entry, looked up): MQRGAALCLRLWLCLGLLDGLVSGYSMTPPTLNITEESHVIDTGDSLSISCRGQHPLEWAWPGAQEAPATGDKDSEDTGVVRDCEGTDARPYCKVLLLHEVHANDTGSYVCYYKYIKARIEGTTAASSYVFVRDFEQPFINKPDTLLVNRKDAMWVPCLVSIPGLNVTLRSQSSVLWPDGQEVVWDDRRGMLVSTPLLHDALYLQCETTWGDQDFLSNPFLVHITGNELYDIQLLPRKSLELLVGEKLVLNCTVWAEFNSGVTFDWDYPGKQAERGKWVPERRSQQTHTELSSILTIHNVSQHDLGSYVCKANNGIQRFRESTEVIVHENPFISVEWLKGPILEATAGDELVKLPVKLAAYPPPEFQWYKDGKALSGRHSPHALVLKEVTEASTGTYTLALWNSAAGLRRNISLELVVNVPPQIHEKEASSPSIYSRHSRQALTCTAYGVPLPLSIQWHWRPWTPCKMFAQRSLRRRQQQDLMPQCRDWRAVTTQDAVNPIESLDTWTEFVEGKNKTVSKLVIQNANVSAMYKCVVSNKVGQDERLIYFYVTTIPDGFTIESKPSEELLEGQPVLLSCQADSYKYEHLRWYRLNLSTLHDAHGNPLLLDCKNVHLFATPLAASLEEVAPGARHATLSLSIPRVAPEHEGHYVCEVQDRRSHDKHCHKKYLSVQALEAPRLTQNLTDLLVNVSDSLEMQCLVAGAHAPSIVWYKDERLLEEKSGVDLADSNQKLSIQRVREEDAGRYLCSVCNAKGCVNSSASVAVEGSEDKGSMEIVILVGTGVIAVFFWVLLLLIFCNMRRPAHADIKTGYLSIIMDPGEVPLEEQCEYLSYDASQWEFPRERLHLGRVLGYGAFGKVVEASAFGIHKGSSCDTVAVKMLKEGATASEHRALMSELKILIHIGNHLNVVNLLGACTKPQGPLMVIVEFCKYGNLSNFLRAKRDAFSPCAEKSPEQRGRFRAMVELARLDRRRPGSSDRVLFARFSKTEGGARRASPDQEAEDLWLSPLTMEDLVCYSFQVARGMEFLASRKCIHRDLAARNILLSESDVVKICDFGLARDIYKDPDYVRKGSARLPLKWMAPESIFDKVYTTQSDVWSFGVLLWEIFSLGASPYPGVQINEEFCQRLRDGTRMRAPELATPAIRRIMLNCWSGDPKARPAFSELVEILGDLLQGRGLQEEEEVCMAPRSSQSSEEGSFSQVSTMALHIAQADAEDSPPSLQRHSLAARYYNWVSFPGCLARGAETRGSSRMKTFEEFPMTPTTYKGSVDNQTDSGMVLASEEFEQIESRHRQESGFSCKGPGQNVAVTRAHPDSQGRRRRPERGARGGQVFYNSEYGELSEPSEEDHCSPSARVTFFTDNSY
UniProt P78368, sequence (whole entry, looked up): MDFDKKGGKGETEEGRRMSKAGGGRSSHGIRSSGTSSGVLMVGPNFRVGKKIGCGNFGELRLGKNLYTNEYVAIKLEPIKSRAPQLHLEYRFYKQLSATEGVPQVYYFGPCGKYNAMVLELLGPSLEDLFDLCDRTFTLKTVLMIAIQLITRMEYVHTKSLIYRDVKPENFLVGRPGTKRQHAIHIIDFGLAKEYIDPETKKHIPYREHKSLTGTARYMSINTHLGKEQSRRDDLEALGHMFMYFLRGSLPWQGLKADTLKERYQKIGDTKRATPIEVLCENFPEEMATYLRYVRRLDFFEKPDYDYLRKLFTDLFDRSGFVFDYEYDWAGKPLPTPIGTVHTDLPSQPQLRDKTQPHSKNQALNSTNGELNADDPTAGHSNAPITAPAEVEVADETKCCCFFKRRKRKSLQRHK

Series 1 — cell line: mouse MPNST tumor cells; technique: high-content nuclear imaging; item: cell number; concentration: 10 µM; time: 12 h; notes: mean of 2 replicates; relative to: plate mean; reading: higher = more cells
Compound | nuclei count [z-score]
O=C1OC(CN2CCOCC2)CN1/N=C/c1ccc([N+](=O)[O-])o1 (stereo not drawn) | -0.189
N=C(N)NS(=O)(=O)c1ccc(N)cc1 | 0.552
NCCCC(N)(C(=O)O)C(F)F (stereo not drawn) | 1
CCCCc1ccc2[nH]c(NC(=O)OC)nc2c1 | -3.23

Series 2 — technique: competition with immobilised ligand; concentration: 1 µM
SMILES: CN(C)C(=O)Cn1cc(-c2nc([C@@](C)(c3ccc(-c4cnc(N)nc4)cc3)C3CC3)no2)cn1
target | assay | remaining binding [%]
Cyclin-dependent kinase-like 3 (CDKL3, Homo sapiens, UniProt Q8IVW4) | binding | 94
Bone morphogenetic protein receptor type-1A (BMPR1A, Homo sapiens, UniProt P36894) | binding | 100
Serine/threonine-protein kinase 35 (STK35, Homo sapiens, UniProt Q8TDR2) | cell-free assay | 88
Ephrin type-B receptor 3 (EPHB3, Homo sapiens, UniProt P54753) | cell-free assay | 100
Casein kinase I isoform gamma-2 (CSNK1G2, Homo sapiens, UniProt P78368) | cell-free assay | 100
Mitogen-activated protein kinase 6 (MAPK6, Homo sapiens, UniProt Q16659) | cell-free assay | 91
Serine/threonine-protein kinase PLK3 (PLK3, Homo sapiens, UniProt Q9H4B4) | cell-free assay | 89
Vascular endothelial growth factor receptor 3 (FLT4, Homo sapiens, UniProt P35916) | cell-free assay | 88
SRSF protein kinase 3 (SRPK3, Homo sapiens, UniProt Q9UPE1) | cell-free assay | 85
Serine/threonine-protein kinase LATS1 (LATS1, Homo sapiens, UniProt O95835) | cell-free assay | 93
Tyrosine-protein kinase JAK1, JH2 (JAK1, Homo sapiens, UniProt P23458) | cell-free assay | 33
Serine/threonine-protein kinase PAK 5 (PAK5, Homo sapiens, UniProt Q9P286) | cell-free assay | 100
Cyclin-dependent kinase 4 (CDK4, Homo sapiens, UniProt P11802) | cell-free assay | 94
Tyrosine-protein kinase Tec (TEC, Homo sapiens, UniProt P42680) | binding | 93
Angiopoietin-1 receptor (TEK, Homo sapiens, UniProt Q02763) | cell-free assay | 100
cAMP-dependent protein kinase catalytic subunit alpha (PRKACA, Homo sapiens, UniProt P17612) | cell-free assay | 87
Proto-oncogene tyrosine-protein kinase receptor Ret (RET, Homo sapiens, UniProt P07949, V804M) | cell-free assay | 97
Death-associated protein kinase 1 (DAPK1, Homo sapiens, UniProt P53355) | cell-free assay | 82

Series 3 — organism: Sarcocystis neurona; observed: parasite growth; concentration: 10 µM; notes: secondary screen
Compound | inhibition
O=C(O[C@@H]1Cc2c(O)cc(O)cc2O[C@@H]1c1cc(O)c(O)c(O)c1)c1cc(O)c(O)c(O)c1 | -36.8%
CC(C)/N=c1\cc2n(-c3ccc(Cl)cc3)c3ccccc3nc-2cc1Nc1ccc(Cl)cc1 | 94.9%
C[C@@](Cc1ccc(O)c(O)c1)(NN)C(=O)O | -33.7%

Series 4 — host: human; sample: microsomes or S9; concentration: 2 µM; time: 0.5 h
SMILES | remaining compound
CC(C)(C)C(O)CN1C2=NCCN2c2ccccc21 (stereo not drawn) | 96%
CCn1[nH]cc/c1=N\C(=O)c1nn(-c2ccccc2)c(=O)c2ccccc12 | 47.6%
CCn1c(=O)c2sccc2n2c(CCC(=O)NCc3ccc(F)cc3)nnc12 | 48%

Series 5 — route: intrathecal; dose: 100 nmol
SMILES: COc1cc(C(=O)OCCCN2CCCN(CCCOC(=O)c3cc(OC)c(OC)c(OC)c3)CC2)cc(OC)c1OC
test system | setting | licking duration
female mouse, formalin pain | 0 to 5 min | 186 s and 213 s and 172 s and 158 s
male mouse, formalin pain | 0 to 5 min | 119 s and 200 s and 143 s and 219 s
female mouse, formalin pain | 0 to 10 min | 199 s and 233 s and 260 s and 221 s

Series 6 — cell line: A-375; concentration: 100 µM; time: 36 h
Compound | viability
CO/N=C(\C(=O)N[C@@H]1C(=O)N2C(C(=O)O)=C(CSc3nnnn3C)CS[C@H]12)c1csc(N)n1 | 103%
CC(C)C(=O)c1c(C(C)C)nn2ccccc12 | 88.4%
CO[C@H]1/C=C/O[C@@]2(C)Oc3c(C)c(O)c4c(O)c(c(/C=N/N5CCN(C6CCCC6)CC5)c(O)c4c3C2=O)NC(=O)/C(C)=C\C=C\[C@H](C)[C@H](O)[C@@H](C)[C@@H](O)[C@@H](C)[C@H](OC(C)=O)[C@@H]1C | 35%

Other studies, line by line
Structure (SMILES) | target or system | assay | test system | setting | measurement | value
CC1=C(/C=C/C(C)=C/C=C/C(C)=C/C(=O)O)C(C)(C)CCC1 |  |  | NSG mouse, HuT78 xenograft | dose not given, end of study | tumour weight | 0.628 g and 0.631 g and 0.689 g and 0.735 g
CN(C(=O)c1ccn2ncc(-c3ccc(C(N)=O)cc3)c2c1)c1ccc(C#N)cn1 | Cryptosporidium parvum | qPCR | IFN-γ knockout mice | intravenous, 1 mg/kg | faecal oocyst shedding | 6.85 log oocysts/g faeces and 6.92 log oocysts/g faeces and 6.94 log oocysts/g faeces

A few entries again (series 3):
Compound | inhibition
O=C(O[C@@H]1Cc2c(O)cc(O)cc2O[C@@H]1c1cc(O)c(O)c(O)c1)c1cc(O)c(O)c(O)c1 | -36.8%
CC(C)/N=c1\cc2n(-c3ccc(Cl)cc3)c3ccccc3nc-2cc1Nc1ccc(Cl)cc1 | 94.9%
C[C@@](Cc1ccc(O)c(O)c1)(NN)C(=O)O | -33.7%
